Experimental data pooled from the literature.
Parts stem from different laboratories: compare values within a part only. Values joined by “and” are separate records of one study, mostly repeats; a detail may differ.
Chain of UniProt O00238 (whole entry, looked up): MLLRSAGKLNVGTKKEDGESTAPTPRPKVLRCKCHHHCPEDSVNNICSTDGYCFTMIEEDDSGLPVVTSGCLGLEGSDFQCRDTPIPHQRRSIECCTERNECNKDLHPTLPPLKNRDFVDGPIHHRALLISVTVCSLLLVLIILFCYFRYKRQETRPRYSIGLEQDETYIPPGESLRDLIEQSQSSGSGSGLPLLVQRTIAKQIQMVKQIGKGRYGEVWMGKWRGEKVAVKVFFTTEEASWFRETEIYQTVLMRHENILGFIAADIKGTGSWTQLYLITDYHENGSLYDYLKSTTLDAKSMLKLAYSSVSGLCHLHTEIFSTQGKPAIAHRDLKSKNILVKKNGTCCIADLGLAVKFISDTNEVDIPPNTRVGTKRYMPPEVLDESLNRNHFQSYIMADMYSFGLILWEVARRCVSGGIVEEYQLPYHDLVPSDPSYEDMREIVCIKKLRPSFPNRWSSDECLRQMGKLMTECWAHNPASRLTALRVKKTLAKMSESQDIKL
Chain of UniProt Q6ZWH5 (whole entry, looked up): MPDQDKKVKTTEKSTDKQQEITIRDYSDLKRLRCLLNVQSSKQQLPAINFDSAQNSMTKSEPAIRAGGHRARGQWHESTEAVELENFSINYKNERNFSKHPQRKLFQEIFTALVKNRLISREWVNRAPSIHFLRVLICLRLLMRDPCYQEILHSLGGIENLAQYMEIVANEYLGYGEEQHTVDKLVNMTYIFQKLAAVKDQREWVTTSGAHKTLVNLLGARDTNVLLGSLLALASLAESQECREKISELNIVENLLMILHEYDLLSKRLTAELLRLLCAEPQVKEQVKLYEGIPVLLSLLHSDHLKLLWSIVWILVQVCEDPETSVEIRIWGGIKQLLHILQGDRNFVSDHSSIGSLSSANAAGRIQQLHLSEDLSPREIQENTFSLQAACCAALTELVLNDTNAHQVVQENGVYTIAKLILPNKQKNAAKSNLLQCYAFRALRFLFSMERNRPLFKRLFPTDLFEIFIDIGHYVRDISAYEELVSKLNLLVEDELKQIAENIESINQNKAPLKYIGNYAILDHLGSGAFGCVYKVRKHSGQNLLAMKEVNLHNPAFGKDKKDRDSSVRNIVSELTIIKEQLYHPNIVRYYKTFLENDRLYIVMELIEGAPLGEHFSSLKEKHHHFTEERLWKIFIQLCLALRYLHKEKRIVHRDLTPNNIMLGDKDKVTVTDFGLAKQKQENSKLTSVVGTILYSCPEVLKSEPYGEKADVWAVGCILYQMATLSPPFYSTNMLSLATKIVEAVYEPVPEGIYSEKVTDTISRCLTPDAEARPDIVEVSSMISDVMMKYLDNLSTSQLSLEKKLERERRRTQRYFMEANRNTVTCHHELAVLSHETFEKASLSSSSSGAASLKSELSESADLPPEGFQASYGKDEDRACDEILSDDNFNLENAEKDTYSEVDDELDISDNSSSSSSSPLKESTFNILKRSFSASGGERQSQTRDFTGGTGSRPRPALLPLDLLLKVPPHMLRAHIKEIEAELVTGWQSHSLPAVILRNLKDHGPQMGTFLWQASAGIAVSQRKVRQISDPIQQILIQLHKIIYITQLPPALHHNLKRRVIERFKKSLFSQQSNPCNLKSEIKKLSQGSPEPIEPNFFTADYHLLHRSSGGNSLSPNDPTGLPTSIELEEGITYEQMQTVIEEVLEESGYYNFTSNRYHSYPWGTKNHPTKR
Chain of UniProt Q9H1R3 (whole entry, looked up): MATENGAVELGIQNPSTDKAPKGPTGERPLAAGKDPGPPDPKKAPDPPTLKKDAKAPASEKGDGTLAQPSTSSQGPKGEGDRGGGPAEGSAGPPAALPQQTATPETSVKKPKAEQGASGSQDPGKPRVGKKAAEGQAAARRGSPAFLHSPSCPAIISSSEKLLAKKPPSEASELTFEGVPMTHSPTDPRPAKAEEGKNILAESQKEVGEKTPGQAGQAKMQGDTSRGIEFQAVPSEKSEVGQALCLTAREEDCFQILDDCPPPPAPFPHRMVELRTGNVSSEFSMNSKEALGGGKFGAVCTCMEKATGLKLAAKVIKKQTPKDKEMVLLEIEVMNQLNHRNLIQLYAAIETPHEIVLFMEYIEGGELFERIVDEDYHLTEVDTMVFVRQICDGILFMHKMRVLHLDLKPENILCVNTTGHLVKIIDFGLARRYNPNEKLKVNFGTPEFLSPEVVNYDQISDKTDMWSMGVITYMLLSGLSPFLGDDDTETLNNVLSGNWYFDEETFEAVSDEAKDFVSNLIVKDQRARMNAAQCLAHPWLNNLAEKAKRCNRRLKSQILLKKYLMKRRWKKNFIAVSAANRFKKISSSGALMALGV
Chain of UniProt Q00536 (whole entry, looked up): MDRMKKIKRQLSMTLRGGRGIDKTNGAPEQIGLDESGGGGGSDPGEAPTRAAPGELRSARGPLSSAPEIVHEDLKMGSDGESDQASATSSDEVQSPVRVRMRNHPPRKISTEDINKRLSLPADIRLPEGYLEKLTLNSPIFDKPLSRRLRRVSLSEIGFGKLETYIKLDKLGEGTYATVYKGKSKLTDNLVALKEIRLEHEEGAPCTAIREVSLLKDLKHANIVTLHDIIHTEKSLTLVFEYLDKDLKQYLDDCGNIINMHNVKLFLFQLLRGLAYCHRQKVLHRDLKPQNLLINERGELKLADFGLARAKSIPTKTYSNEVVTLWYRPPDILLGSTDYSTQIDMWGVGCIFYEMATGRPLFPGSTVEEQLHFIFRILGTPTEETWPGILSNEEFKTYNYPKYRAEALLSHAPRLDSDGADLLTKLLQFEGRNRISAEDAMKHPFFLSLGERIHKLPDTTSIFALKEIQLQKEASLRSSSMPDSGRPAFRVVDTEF
Chain of UniProt P53667 (whole entry, looked up): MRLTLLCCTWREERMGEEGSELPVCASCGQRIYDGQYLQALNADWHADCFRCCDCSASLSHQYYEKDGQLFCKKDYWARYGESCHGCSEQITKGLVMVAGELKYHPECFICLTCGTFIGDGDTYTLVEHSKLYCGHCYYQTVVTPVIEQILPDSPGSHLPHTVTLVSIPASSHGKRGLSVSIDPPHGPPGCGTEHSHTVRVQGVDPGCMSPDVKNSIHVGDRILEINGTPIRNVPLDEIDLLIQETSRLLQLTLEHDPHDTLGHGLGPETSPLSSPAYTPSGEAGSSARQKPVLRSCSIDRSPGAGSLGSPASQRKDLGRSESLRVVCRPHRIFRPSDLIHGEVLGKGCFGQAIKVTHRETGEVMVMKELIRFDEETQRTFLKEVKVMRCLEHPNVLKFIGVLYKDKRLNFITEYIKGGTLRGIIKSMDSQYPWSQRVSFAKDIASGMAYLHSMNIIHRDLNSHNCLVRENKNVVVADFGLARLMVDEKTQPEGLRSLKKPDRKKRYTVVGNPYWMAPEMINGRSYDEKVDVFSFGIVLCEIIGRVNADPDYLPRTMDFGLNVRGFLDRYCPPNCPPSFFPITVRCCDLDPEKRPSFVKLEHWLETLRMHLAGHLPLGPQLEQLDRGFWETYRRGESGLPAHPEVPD
Chain of UniProt Q15418 (whole entry, looked up): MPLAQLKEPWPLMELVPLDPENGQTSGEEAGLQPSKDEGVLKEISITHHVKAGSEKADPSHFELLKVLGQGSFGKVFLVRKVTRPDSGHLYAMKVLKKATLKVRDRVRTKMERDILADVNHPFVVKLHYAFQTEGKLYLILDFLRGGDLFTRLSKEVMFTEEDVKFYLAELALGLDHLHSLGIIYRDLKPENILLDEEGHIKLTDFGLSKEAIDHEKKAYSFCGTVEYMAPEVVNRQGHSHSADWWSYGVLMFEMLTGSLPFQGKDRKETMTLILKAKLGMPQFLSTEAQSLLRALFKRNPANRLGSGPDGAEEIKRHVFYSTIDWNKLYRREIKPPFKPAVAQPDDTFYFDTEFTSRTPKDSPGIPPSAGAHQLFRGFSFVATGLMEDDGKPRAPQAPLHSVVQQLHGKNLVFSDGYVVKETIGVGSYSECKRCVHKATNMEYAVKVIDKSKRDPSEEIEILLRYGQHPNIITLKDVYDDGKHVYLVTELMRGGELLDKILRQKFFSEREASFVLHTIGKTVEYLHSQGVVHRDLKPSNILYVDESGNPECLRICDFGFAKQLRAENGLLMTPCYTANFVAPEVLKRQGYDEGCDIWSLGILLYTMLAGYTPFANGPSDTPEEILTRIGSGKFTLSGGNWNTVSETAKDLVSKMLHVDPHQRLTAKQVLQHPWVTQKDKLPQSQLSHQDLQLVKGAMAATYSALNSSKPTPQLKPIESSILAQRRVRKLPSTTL

Series 1
SMILES: CC(C)(C(=O)O)[C@H](NC(=O)Cc1cccc(I)c1)c1ccc2oc(=O)[nH]c2c1
Method: Incucyte 3D growth
Concentration: 30 µM
Reading: higher = more growth
Measurement: spheroid area
A375; 246 h: 1.33e+08 a.u. and 1.59e+08 a.u. and 1.31e+08 a.u. and 1.39e+08 a.u. and 1.18e+08 a.u.
MEL-JUSO; 510.52 h: 2.62e+07 a.u. and 5.75e+07 a.u. and 2.78e+07 a.u. and 2.97e+07 a.u. and 8.04e+07 a.u. and 1.63e+07 a.u.
PC-9; 192 h: 1.65e+09 a.u. and 1.63e+09 a.u. and 1.73e+09 a.u. and 1.71e+09 a.u. and 1.62e+09 a.u. and 1.7e+09 a.u.
NCI-H358; 84 h: 3.69e+06 a.u. and 3.72e+06 a.u. and 5.04e+06 a.u. and 3.46e+06 a.u. and 4.62e+06 a.u. and 3.79e+06 a.u.
PC-9; 204 h: 1.68e+09 a.u. and 1.66e+09 a.u. and 1.76e+09 a.u. and 1.73e+09 a.u. and 1.78e+09 a.u. and 1.75e+09 a.u.
IPC-298; 12 h: 2.2e+07 a.u. and 1.56e+07 a.u. and 2.12e+07 a.u. and 1.72e+07 a.u. and 1.98e+07 a.u. and 1.63e+07 a.u.
PC-9; 36 h: 3.5e+08 a.u. and 3.39e+08 a.u. and 3.4e+08 a.u. and 3.59e+08 a.u. and 3.46e+08 a.u. and 3.69e+08 a.u.

Series 2
Target: Dual specificity tyrosine-phosphorylation-regulated kinase 4 (DYRK4, Homo sapiens, UniProt Q9NR20)
Read-out: enzyme activity
Mode: inhibitor
Concentration: 0.5 µM
Baseline: control
Measurement: remaining activity
Residues (Q9NR20 1-520): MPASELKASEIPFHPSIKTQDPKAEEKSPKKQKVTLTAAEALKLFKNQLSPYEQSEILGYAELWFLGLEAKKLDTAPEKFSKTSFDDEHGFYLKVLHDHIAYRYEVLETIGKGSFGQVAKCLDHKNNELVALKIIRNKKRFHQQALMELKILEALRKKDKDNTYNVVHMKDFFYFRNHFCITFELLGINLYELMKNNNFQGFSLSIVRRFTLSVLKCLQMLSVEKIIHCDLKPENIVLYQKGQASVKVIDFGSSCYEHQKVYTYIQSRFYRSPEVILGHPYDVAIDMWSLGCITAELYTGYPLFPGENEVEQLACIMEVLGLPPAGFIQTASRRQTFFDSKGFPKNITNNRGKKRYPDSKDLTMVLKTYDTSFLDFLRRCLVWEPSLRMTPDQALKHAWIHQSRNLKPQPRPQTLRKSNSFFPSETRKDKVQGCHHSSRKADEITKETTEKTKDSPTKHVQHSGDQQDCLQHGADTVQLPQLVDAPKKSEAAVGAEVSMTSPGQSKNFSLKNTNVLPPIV
CNc1cc2c(Nc3cccc(Br)c3)ncnc2cn1: 87.5%
O=C1Nc2ccc(Br)cc2/C1=C/c1cc2c([nH]1)CCCC2: 102%
O=C1Nc2ccccc2/C1=C\c1c(Cl)[nH]c2ccccc12: 97.4%
COc1ccc(COc2ccc(Cc3cnc(N)nc3N)cc2OC)cc1: 101%
NC(=O)c1cccc(-c2cc(Nc3ccc(OC(F)(F)F)cc3)ncn2)c1: 96.3%
O=Nc1c(-c2c(O)[nH]c3ccccc23)[nH]c2ccccc12: 96.8%
O=C(O)/C=C/c1cc(Br)c(Br)c(Br)c1Br: 96.4%
O=C1c2ccccc2-c2nc3nnnn3nc21: 88.5%
CCCNC(=O)Nc1ccc(Oc2ncnc3cc(OC)c(OC)cc23)cc1Cl: 106%
CN1CCN(c2ccc3nc(-c4c(N)c5c(F)cccc5[nH]c4=O)[nH]c3c2)CC1: 98.1%
N#C/C(=C(/N)SC1C=CC=CC1)c1cccc(C(O)c2ccncc2)c1 (centres unmarked): 97.2%
Cc1cc(Nc2cc(N3CCN(C)CC3)nc(Sc3ccc(NC(=O)C4CC4)cc3)n2)[nH]n1: 97.4%
O=C(c1cc2cc(O)ccc2[nH]1)c1cc2cc(O)ccc2[nH]1: 99.7%
COc1ccc2c(c1)c(C1=C(c3c[nH]c4ccccc34)C(=O)NC1=O)cn2CCCN(C)C: 97.3%
C[C@@H](N)[C@H]1CC[C@H](C(=O)Nc2ccncc2)CC1: 94.2%
CC(C)N(CCC(=O)c1ccc2ccccc2c1)Cc1ccccc1: 88.5%
c1ccc2c(-c3ccncc3)c[nH]c2c1: 98.7%
Clc1ccc(Nc2nnc(Cc3ccncc3)c3ccccc23)cc1: 97.5%
c1ccc(-c2n[nH]c3c2oc2ccccc23)cc1: 99.7%
CCCCc1c(-c2ccc(OC)cc2)[nH]c2nccnc12: 97.7%
O=c1c(-c2ccc(F)cc2)c(-c2ccncc2)[nH]n1-c1ccc(Cl)cc1: 81.5%
FC(F)(F)c1ccc(/C=C/c2nc(COc3ccc(CCCCn4ccnn4)cc3)co2)cc1: 101%
Oc1cccc(-c2nc(N3CCOCC3)c3oc4ncccc4c3n2)c1: 96.6%
COc1cc2c(Nc3ccc(Br)cc3F)ncnc2cc1OCC1CCN(C)CC1: 102%
COc1cccc(-c2cc(=O)c3ccccc3o2)c1N: 108%

Series 3
Target: Diamine acetyltransferase 1 (Homo sapiens, UniProt P21673)
Mode: inhibitor
Concentration: 10 µM
Baseline: control
Measurement: remaining activity
Target sequence (P21673 1-171): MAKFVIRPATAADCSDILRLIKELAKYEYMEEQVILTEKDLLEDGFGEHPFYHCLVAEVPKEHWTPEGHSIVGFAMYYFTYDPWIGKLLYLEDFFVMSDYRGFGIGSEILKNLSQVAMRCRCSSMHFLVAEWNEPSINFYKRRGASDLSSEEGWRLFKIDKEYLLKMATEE
COC(=O)C1=CO[C@@H](O[C@@H]2O[C@H](CO[C@@H]3O[C@H](CO)[C@@H](O)[C@H](O)[C@H]3O)[C@@H](O)[C@H](O)[C@H]2O)[C@@H]2C(CO)=CC[C@H]12: 102%
C=C[C@H]1[C@H](O[C@@H]2O[C@H](CO)[C@@H](O)[C@H](O)[C@H]2O)OC=C(C(=O)OC)[C@H]1CCOC(=O)c1cc(O)c(O)c(O)c1: 98.9%
COc1ccc([C@@H]2COc3cc(O[C@@H]4O[C@H](CO)[C@@H](O)[C@H](O)[C@H]4O)ccc3C2)c(O)c1OC: 75.4%
CCCCCCC[C@H](O)CC(=O)CCc1ccc(O)c(OC)c1: 100%
O=c1cc(-c2ccccc2)oc2ccccc12: 83.1%
CC1=CC(=O)C(C(C)C)CC1 (centres unmarked): 101%
C[C@@H]1O[C@@H](O[C@H]2[C@H](OC(=O)[C@]34CCC(C)(C)C[C@H]3C3=CC[C@@H]5[C@@]6(C)C[C@H](O)[C@H](O[C@@H]7O[C@H](CO[C@@H]8O[C@H](CO[C@@H]9O[C@H](CO)[C@@H](O)[C@H](O)[C@H]9O)[C@@H](O)[C@H](O)[C@H]8O)[C@@H](O)[C@H](O)[C@H]7O)C(CO)(CO)[C@@H]6CC[C@@]5(C)[C@]3(C)C[C@H]4O)OC[C@H](O)[C@@H]2O)[C@H](O)[C@H](O)[C@H]1O[C@@H]1OC[C@@H](O)[C@H](O[C@@H]2OC[C@](O)(CO)[C@H]2O)[C@H]1O: 89.6%
C[C@@H]1O[C@@H](O[C@H]2[C@H](O[C@H]3CC[C@@]4(C)[C@@H](CC[C@]5(C)[C@@H]4CC=C4[C@@H]6CC(C)(C)CC[C@]6(C(=O)O[C@@H]6O[C@H](CO[C@@H]7O[C@H](CO)[C@@H](O)[C@H](O)[C@H]7O)[C@@H](O)[C@H](O)[C@H]6O)CC[C@]45C)[C@]3(C)CO)OC[C@H](O)[C@@H]2O)[C@H](O)[C@H](O[C@@H]2O[C@H](CO)[C@@H](O)[C@H](O)[C@H]2O)[C@H]1O: 99.4%
CCCCCCCCCCCCCCCCCCCCCC: 102%
Cc1ccc([C@]2(C)CCCC2(C)C)cc1: 87.6%

Series 4
Structure (SMILES): CS(=O)(=O)N1CCCC(NC(=O)[C@H](CCC2CCCCC2)NC(=O)c2ccc(CNc3ncnc4c3nnn4-c3ccccc3)cc2)C1 (some centres unmarked)
Read-out: cell-free assay
Method: competition with immobilised ligand
Concentration: 0.1 µM
Measurement: remaining binding
Bone morphogenetic protein receptor type-1B (BMPR1B, Homo sapiens, UniProt O00238): 91%
Serine/threonine-protein kinase Nek10 (NEK10, Homo sapiens, UniProt Q6ZWH5): 100%
Tyrosine-protein kinase ABL1, non-phosphorylated (ABL1, Homo sapiens, UniProt P00519, Q252H): 89%
Ribosomal protein S6 kinase alpha-1, C-terminal kinase domain (RPS6KA1, Homo sapiens, UniProt Q15418): 100%
Cyclin-dependent kinase 16 (CDK16, Homo sapiens, UniProt Q00536): 100%
LIM domain kinase 1 (LIMK1, Homo sapiens, UniProt P53667): 100%
Myosin light chain kinase 2, skeletal/cardiac muscle (MYLK2, Homo sapiens, UniProt Q9H1R3): 90%
Epidermal growth factor receptor (EGFR, Homo sapiens, UniProt P00533, A750P/del747-749): 93%

Excerpt of the above (series 3):
O=c1cc(-c2ccccc2)oc2ccccc12: 83.1%
CC1=CC(=O)C(C(C)C)CC1 (centres unmarked): 101%
C[C@@H]1O[C@@H](O[C@H]2[C@H](OC(=O)[C@]34CCC(C)(C)C[C@H]3C3=CC[C@@H]5[C@@]6(C)C[C@H](O)[C@H](O[C@@H]7O[C@H](CO[C@@H]8O[C@H](CO[C@@H]9O[C@H](CO)[C@@H](O)[C@H](O)[C@H]9O)[C@@H](O)[C@H](O)[C@H]8O)[C@@H](O)[C@H](O)[C@H]7O)C(CO)(CO)[C@@H]6CC[C@@]5(C)[C@]3(C)C[C@H]4O)OC[C@H](O)[C@@H]2O)[C@H](O)[C@H](O)[C@H]1O[C@@H]1OC[C@@H](O)[C@H](O[C@@H]2OC[C@](O)(CO)[C@H]2O)[C@H]1O: 89.6%
